Results of several laboratories.
Compare with care: the assays were run in different laboratories. Numbers after ± are the reported error.
Oprd1: Delta-type opioid receptor (Oprd1, Rattus norvegicus, UniProt P33533)
Sequence of UniProt P33533 (whole entry, looked up): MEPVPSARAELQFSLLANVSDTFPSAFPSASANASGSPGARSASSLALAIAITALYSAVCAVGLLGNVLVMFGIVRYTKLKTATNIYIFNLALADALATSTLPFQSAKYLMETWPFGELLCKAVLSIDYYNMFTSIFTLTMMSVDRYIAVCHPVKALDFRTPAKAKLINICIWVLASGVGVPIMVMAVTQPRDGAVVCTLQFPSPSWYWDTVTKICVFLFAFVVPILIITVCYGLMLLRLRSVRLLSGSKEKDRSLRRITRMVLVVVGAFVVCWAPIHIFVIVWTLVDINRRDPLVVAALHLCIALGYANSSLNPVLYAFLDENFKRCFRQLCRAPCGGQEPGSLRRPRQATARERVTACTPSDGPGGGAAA
HTR6: 5-hydroxytryptamine receptor 6 (HTR6, Homo sapiens, UniProt P50406)
Sequence of UniProt P50406 (whole entry, looked up): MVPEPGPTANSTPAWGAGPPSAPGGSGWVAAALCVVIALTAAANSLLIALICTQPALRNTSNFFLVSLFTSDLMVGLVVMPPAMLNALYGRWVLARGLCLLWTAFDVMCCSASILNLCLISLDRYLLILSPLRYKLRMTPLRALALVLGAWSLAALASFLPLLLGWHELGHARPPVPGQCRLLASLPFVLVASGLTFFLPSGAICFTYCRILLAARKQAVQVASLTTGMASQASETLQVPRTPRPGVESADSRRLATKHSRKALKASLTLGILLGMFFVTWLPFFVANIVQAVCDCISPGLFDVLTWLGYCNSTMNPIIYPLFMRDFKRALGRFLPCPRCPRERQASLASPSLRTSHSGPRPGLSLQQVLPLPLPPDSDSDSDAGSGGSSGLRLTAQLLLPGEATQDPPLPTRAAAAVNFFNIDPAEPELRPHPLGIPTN
RXFP3: Relaxin-3 receptor 1 (RXFP3, Homo sapiens, UniProt Q9NSD7)
Sequence of UniProt Q9NSD7 (whole entry, looked up): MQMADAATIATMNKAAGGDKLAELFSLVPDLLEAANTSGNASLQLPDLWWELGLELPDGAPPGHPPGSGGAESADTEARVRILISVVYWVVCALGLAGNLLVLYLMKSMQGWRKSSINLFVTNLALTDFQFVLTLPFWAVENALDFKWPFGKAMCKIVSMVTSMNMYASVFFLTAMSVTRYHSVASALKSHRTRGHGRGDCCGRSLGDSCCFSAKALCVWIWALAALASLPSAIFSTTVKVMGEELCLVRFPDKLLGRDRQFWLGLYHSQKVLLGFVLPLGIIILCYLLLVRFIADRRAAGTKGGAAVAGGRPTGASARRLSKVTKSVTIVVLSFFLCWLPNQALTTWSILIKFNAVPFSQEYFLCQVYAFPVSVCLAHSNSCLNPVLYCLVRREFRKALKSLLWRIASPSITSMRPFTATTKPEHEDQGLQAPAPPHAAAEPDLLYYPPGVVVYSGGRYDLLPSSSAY
PAL1: PAL1 (Petroselinum crispum, UniProt P24481)
ACHE: Acetylcholinesterase (ACHE, Homo sapiens, UniProt P22303)
Sequence of UniProt P22303 (whole entry, looked up): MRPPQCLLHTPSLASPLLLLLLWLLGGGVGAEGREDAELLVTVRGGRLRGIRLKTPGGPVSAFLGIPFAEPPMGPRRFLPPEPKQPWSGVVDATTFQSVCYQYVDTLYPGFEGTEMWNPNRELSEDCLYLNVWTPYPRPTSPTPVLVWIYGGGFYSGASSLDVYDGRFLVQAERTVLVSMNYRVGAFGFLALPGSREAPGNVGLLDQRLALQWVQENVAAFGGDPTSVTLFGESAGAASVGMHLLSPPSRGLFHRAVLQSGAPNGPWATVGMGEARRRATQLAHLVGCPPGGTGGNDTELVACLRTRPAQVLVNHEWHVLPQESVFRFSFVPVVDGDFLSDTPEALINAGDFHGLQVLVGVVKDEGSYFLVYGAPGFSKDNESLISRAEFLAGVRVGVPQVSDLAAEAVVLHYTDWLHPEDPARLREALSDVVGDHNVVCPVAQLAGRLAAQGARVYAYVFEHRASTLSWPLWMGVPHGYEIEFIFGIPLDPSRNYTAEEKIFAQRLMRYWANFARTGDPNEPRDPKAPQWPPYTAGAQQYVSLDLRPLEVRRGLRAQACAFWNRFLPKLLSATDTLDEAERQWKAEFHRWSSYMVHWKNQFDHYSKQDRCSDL
PPM1D: Protein phosphatase 1D (PPM1D, Homo sapiens, UniProt O15297)
Sequence of UniProt O15297 (whole entry, looked up): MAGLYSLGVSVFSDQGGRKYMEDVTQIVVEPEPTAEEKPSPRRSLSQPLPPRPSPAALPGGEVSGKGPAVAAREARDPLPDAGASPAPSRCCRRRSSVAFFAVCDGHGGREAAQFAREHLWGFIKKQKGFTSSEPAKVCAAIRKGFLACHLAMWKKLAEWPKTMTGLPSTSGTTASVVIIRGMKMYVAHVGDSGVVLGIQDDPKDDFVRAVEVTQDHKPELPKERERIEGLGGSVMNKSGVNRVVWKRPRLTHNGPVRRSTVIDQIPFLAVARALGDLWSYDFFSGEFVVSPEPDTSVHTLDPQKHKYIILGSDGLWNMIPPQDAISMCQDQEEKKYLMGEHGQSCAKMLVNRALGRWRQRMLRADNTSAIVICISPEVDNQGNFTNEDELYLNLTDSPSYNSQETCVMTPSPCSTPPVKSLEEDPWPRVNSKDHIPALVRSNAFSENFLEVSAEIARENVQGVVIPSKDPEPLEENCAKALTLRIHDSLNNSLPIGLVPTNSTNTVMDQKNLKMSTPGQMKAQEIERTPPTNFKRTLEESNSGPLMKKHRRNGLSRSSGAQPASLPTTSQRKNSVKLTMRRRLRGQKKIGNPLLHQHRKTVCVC
Sequence of UniProt P35348 (whole entry, looked up): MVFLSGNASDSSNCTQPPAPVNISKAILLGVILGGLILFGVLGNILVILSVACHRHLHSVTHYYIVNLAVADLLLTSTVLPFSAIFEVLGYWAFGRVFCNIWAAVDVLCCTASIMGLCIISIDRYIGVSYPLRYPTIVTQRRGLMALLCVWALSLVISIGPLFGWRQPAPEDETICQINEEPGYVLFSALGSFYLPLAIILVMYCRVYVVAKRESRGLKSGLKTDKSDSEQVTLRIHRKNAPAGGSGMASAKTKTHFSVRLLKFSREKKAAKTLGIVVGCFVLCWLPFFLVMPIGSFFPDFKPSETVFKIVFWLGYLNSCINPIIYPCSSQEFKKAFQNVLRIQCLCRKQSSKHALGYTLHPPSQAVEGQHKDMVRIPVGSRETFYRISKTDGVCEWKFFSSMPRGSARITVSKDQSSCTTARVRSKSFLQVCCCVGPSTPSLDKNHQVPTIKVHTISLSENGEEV
Sequence of UniProt Q07812 (whole entry, looked up): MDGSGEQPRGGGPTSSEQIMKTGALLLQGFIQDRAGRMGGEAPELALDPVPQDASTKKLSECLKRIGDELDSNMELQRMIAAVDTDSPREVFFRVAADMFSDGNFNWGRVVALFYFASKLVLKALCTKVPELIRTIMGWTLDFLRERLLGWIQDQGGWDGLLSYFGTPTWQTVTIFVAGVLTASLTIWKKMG
Sequence of UniProt P35462 (whole entry, looked up): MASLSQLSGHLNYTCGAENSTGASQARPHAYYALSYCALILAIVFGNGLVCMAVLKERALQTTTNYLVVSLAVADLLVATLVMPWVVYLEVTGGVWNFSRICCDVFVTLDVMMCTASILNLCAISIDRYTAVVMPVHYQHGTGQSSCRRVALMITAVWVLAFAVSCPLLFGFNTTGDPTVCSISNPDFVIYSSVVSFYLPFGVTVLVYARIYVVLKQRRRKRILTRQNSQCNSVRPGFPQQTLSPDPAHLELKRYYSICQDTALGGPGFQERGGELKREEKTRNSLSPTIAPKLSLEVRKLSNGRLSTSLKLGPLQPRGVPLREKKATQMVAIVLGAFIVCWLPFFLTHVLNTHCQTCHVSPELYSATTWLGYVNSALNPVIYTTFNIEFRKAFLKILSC
Sequence of UniProt P29117 (whole entry, looked up): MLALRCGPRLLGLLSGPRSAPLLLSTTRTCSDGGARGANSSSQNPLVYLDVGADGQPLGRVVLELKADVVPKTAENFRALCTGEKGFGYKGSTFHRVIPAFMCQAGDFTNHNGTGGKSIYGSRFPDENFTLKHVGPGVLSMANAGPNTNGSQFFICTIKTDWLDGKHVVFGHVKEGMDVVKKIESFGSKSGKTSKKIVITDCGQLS
Sequence of UniProt P00915 (whole entry, looked up): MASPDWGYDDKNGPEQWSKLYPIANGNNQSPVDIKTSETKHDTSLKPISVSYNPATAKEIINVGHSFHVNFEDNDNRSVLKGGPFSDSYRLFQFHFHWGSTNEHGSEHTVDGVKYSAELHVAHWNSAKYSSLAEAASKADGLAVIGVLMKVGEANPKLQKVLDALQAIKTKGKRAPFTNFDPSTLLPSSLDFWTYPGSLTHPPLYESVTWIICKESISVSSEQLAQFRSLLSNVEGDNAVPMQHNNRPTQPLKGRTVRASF
Sequence of UniProt Q96NY8 (whole entry, looked up): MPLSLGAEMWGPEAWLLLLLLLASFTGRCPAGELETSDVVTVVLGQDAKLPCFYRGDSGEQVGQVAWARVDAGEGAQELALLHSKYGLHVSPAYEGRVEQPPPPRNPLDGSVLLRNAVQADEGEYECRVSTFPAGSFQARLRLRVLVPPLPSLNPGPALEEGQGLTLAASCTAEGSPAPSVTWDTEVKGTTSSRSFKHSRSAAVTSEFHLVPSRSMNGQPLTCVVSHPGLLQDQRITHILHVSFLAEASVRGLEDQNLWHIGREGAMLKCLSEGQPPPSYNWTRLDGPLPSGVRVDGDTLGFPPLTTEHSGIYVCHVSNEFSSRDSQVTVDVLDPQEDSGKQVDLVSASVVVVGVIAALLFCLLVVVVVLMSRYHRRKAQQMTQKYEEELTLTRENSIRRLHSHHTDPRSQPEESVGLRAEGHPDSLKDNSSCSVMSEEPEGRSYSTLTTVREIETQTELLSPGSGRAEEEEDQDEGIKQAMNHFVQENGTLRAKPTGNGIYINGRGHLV
Sequence of UniProt P00761 (whole entry, looked up): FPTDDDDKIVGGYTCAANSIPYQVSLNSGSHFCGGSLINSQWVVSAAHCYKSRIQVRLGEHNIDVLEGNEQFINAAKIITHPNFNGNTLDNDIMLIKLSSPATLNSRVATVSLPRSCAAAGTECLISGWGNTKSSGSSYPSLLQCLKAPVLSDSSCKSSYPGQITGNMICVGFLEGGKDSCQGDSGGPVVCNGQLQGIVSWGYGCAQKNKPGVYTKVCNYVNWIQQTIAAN

Structure (SMILES) | target | assay | system | conditions | Ki
CC[C@H](C)[C@H](NC(=O)[C@H](CCCNC(=N)N)NC(=O)[C@H](CCCNC(=N)N)NC(=O)[C@@H]1CCCN1C(=O)[C@@H]1CCCN1C(=O)[C@H](CCCNC(=N)N)NC(=O)[C@@H]1CCCN1C(=O)[C@H](CCCNC(=N)N)NC(=O)[C@@H]1CCCN1C(=O)[C@H](CC(C)C)NC(=O)[C@H](Cc1ccc(O)cc1)NC(=O)[C@@H]1CCCN1C(=O)[C@@H]1CCCN1C(=O)[C@H](CCCCN)NC(=O)[C@H](CC(=O)O)NC(=O)[C@@H](N)C(C)C)C(=O)N[C@@H](Cc1ccc(O)cc1)C(=O)N[C@@H](CC(N)=O)C(=O)N[C@@H](CCCNC(=N)N)C(=O)N1CCN(c2cc3c(cc2F)c(=O)c(C(N)=O)cn3C2CC2)CC1 | dnaK (Escherichia coli, UniProt P0A6Y8) | ligand displacement, FP |  |  | 0.273 µM
Cc1cc(O)cc(C)c1CC(N)C(=O)NC1CCNc2c(C(=O)NCc3ccccc3)cc(Cc3ccccc3)cc21 (centres unmarked) | Oprd1 | ligand displacement, radioligand |  | cell membranes | 0.003 µM
CN1CCN(c2ccc3cnn(Cc4cccc5ccccc45)c3c2)CC1 | HTR6 | ligand displacement, radioligand |  | cell membranes | 0.051 µM
CC[C@H](C)[C@H](NC(=O)[C@H](CS)NC(=O)[C@H](CCC(N)=O)NC(=O)[C@H](CC(C)C)NC(=O)[C@H](CCCCN)NC(=O)[C@H](CCCNC(=N)N)NC(=O)[C@H](C)NC(=O)[C@@H](NC(=O)[C@H](CCC(N)=O)NC(=O)[C@@H](NC(=O)[C@H](CCC(=O)O)NC(=O)[C@H](C)NC(=O)[C@H](CCC(N)=O)NC(=O)[C@@H](N)Cc1c[nH]cn1)C(C)C)[C@@H](C)CC)C(=O)N[C@@H](C)C(=O)N[C@@H](CC(=O)O)C(=O)N[C@@H](CCC(N)=O)C(=O)N[C@@H](Cc1ccccc1)C(=O)N[C@@H](Cc1c[nH]cn1)C(=O)N[C@@H](CCCNC(=N)N)C(=O)N[C@@H](CC(C)C)C(=O)N[C@@H](Cc1c[nH]cn1)C(=O)N[C@H](C(=O)N[C@@H](CCC(N)=O)C(=O)N[C@@H](CCC(N)=O)C(=O)O)C(C)C | BCL2L1 (Homo sapiens, UniProt Q07817) | ligand displacement, FP |  |  | 0.023 µM
CCCCCCCCCCCCCC(=O)NCC(=O)NCC(=O)N[C@@H](CO)C(=O)NCC(=O)N[C@@H](CO)C(=O)NCC(=O)N[C@H]1CSSC[C@@H]2NC(=O)CNC(=O)[C@H](C)NC(=O)[C@H](CC(C)C)NC(=O)[C@@H]3CSSC[C@@H](C(=O)NCC(=O)O)NC(=O)[C@H](Cc4ccccc4)NC(=O)CNC(=O)[C@H](CC(N)=O)NC(=O)[C@@H]4CCCN4C(=O)CNC(=O)[C@H](CSSC[C@H](NC(=O)[C@H](CCCNC(=N)N)NC(=O)[C@H](CCSC)NC(=O)[C@H](CC(C)C)NC(=O)[C@H]([C@@H](C)CC)NC(=O)[C@H](CCCNC(=N)N)NC(=O)[C@@H]4CCCN4C1=O)C(=O)N[C@@H](CCCCN)C(=O)N[C@@H](CCC(N)=O)C(=O)N[C@@H](CC(=O)O)C(=O)N[C@@H](CO)C(=O)N[C@@H](CC(=O)O)C(=O)N3)NC(=O)[C@H](C(C)C)NC2=O | Trypsin (Sus scrofa, UniProt P00761) | enzyme activity, inhibitor, fluorescence |  | with preincubation | 0.0001 µM
Cc1cc(O)cc(C)c1CC(N)C(=O)NC1CCNc2c(F)cc(Cc3ccccc3)cc21 (centres unmarked) | Oprd1 | ligand displacement, radioligand |  | cell membranes | 0.003 µM
CC[C@H](C)[C@@H]1NC(=O)[C@H](C(C)C)NC(=O)[C@H](C)NC(=O)[C@H](CCCNC(=N)N)NC(=O)[C@H]([C@@H](C)CC)NC(=O)[C@](C)(NC(=O)[C@H](CCC(=O)O)NC(=O)[C@H](CCCNC(=N)N)NC(=O)CNC(=O)[C@H](CS)NC(=O)[C@H](CC(C)C)NC(=O)[C@H](CCCNC(=N)N)NC(=O)[C@@H](NC(=O)CNC(=O)[C@H](Cc2ccc(O)cc2)NC(=O)[C@@H]2CCCN2C(=O)[C@H](C)NC(=O)[C@H](C)NC(=O)[C@@H](N)CCCNC(=N)N)C(C)C)CCCC=CCCCCCC[C@@](C)(C(=O)N[C@@H](CS)C(=O)NCC(=O)NCC(=O)N[C@@H](CO)C(=O)N[C@@H](CCCNC(=N)N)C(=O)N[C@@H](Cc2c[nH]c3ccccc23)C(=O)O)NC(=O)[C@H](Cc2ccccc2)NC1=O | RXFP3 | ligand displacement |  |  | 0.0661 µM
CSC[C@H]1CN(Cc2c[nH]c3c(N)ncnc23)C[C@@H]1O | MTA/SAH nucleosidase (Campylobacter jejuni subsp. jejuni, UniProt Z9IB28FKP7) | inhibitor |  | pH 7.4, 25 °C, with: MTA 1 mM | 0.0065 ± 0.0006 µM
O=c1ccoc2ccc(OCCCCCN3CCCCCC3)cc12 | Cholinesterase (BCHE, Homo sapiens, UniProt P06276) | enzyme activity, inhibitor, Ellman |  |  | 0.0887 µM
CC1(CCN2CCc3ccccc3C2)Cc2cc(Cl)ccc2C1=O (single isomer, unassigned) | DRD3 (Homo sapiens, UniProt P35462) | ligand displacement, radioligand |  |  | 0.996 µM
NC(CCS)P(=O)(O)O (racemic) | PAL1 | enzyme activity, inhibitor, absorbance |  | pH 8.8 | > 1000 µM
C/C=C/C[C@@H](C)[C@@H](O)[C@H]1C(=O)N[C@@H](CC)C(=O)N(C)C(Cc2ccc(C(=O)NCCCCCCN)cc2)C(=O)N(C)[C@@H](CC(C)C)C(=O)N[C@@H](C(C)C)C(=O)N(C)[C@@H](CC(C)C)C(=O)N[C@@H](C)C(=O)N[C@H](C)C(=O)N(C)[C@@H](CC(C)C)C(=O)N(C)[C@@H](CC(C)C)C(=O)N(C)[C@@H](C(C)C)C(=O)N1C (some centres unmarked) | Peptidyl-prolyl cis-trans isomerase F, mitochondrial (Ppif, Rattus norvegicus, UniProt P29117) | PPIase activity, inhibitor |  | pH 7.5, 15 °C | 0.015 µM
N=C(N)Nc1cccc(C(=O)NCC2(Nc3ccccc3)CCN(Cc3ccccc3)CC2)c1 | NPFFR1 (Homo sapiens, UniProt Q9GZQ6) | cell-free assay |  |  | 1.62 µM
COc1cc2c(cc1OC)C(=O)C(=Cc1ccc(N3CCN(C)CC3)cc1)C2 | ACHE | enzyme activity, inhibitor |  |  | 0.157 µM
CC[C@H](C)[C@@H]1NC(=O)[C@H](Cc2ccccc2)NC(=O)[C@@](C)(NC(=O)[C@H](CCCNC(=N)N)NC(=O)CNC(=O)[C@H](CO)NC(=O)[C@H](CC(C)C)NC(=O)[C@@H](N)CCCNC(=N)N)CCCC=CCCC[C@@](C)(C(=O)N[C@H](C(=O)N[C@H](C(=O)N[C@@H](Cc2ccccc2)C(=O)N[C@H](C(=O)N[C@@H](CO)C(=O)NCC(=O)NCC(=O)N[C@@H](CO)C(=O)N[C@@H](CCCNC(=N)N)C(=O)N[C@@H](Cc2c[nH]c3ccccc23)C(=O)O)[C@@H](C)O)[C@@H](C)CC)C(C)C)NC(=O)[C@H](CCCNC(=N)N)NC1=O | RXFP3 | ligand displacement |  |  | 0.151 µM
NC(c1ccccc1)P(=O)(O)O (racemic) | PAL1 | enzyme activity, inhibitor, absorbance |  | pH 8.8 | 41.5 µM
C=CC[N+]12CN3CN(CN(C3)C1)C2 | BAX (Homo sapiens, UniProt Q07812) | ligand displacement, FP |  |  | 0.0541 µM
CN1CCN(c2cccc3c2ccn3Cc2ccccc2)CC1 | HTR6 | ligand displacement, radioligand |  | cell membranes | 0.024 µM

Structure (SMILES) | target | assay | system | conditions | Ki
CC[C@H](C)[C@@H]1NC(=O)[C@H](CCOP(=O)(O)O)NC(=O)[C@H](Cc2ccc(Cl)cc2)NC(=O)CSC[C@@H](C(N)=O)NC(=O)[C@H](CC(=O)O)NC(=O)[C@H](CC(=O)O)NC(=O)[C@H](Cc2ccc(OP(=O)(O)O)cc2)NC1=O | PPM1D | phosphatase activity, inhibitor, malachite green |  | with: ATM pS1981 peptide | 4.7 ± 0.8 µM
Cc1cc(O)cc(C)c1CC(N)C(=O)NC1CCNc2c(C)cc(Cc3ccccc3)cc21 (centres unmarked) | Oprd1 | ligand displacement, radioligand |  | cell membranes | 0.0019 µM
CCCC[C@@H]1NC(=O)[C@H](Cc2ccccc2)NC(=O)CNC(=O)[C@H](NC(=O)[C@@H](N)Cc2ccc(O)cc2)C(C)(C)SSC(C)(C)[C@H](C(=O)N[C@@H](Cc2c[nH]c3ccccc23)C(=O)NCc2cc(C(F)(F)F)cc(C(F)(F)F)c2)NC(=O)[C@@H]2CCCN2C1=O | OPRD1 (Homo sapiens, UniProt P41143) | ligand displacement, radioligand |  | cell membranes | 0.72 µM
[2H]C([2H])(C)N1CCN(C2=Nc3cc(Cl)ccc3Nc3ccccc32)CC1 | ADRA1A (Homo sapiens, UniProt P35348) | ligand displacement, radioligand |  |  | 0.067 µM
CC(C)C[C@@H]1NC(=O)[C@H](Cc2ccc(O)cc2)NC(=O)[C@H](CCCNC(=N)N)NC(=O)[C@H](C(C)C)NC(=O)[C@@H]2CCCN2C(=O)[C@H](Cc2ccccc2)NC(=O)[C@H](C)NC(=O)[C@H](CC(N)=O)NC(=O)[C@H](Cc2ccc(OS(=O)(=O)F)cc2)NC(=O)[C@@H](Cc2ccccc2)NC(=O)CSC[C@@H](C(=O)NCCOCCOCC(=O)NCCOCCOCC(=O)N[C@@H](CCCCN=[N+]=[N-])C(N)=O)NC(=O)[C@H](Cc2c[nH]c3ccccc23)NC(=O)[C@H](CCCNC(=N)N)NC(=O)[C@H](CCCCN)NC1=O | Nectin-4, extracellular domain (Homo sapiens, UniProt Q96NY8) | covalent binder, SPR single-cycle kinetics, two-state model | PBS-T | 800 s contact, 200 s dissociation, 25 °C | 4.94 µM
CCSc1nnc(-c2ccc(S(=O)(=O)NC(=O)COC(C)=O)cc2)o1 | CA1 (Homo sapiens, UniProt P00915) | enzyme activity, inhibitor |  |  | 0.0296 µM
OC(COCc1ccccc1Cl)CN1CC=C(c2c[nH]c3ccccc23)CC1 (racemic) | SLC6A4 (Homo sapiens, UniProt P31645) | ligand displacement, radioligand |  |  | 0.037 µM
NCC(=O)NCC1(Nc2ccccc2)CCN(Cc2ccccc2)CC1 | Neuropeptide FF receptor 2 (Homo sapiens, UniProt Q9Y5X5) | cell-free assay |  |  | 3.22 µM
Cc1cc(O)cc(C)c1CC(N)C(=O)NC1CCNc2c(CCc3ccccc3)cc(Cc3ccccc3)cc21 (centres unmarked) | Oprd1 | ligand displacement, radioligand |  | cell membranes | 0.0014 µM
COc1ccc2ccc3c(c2c1)C=[N+]1C2CCCCC2[N+]2=Cc4cccc(OC)c4[O][Au-]21[O]3.F[P-](F)(F)(F)(F)F (centres unmarked) | Klebsiella pneumoniae thioredoxin reductase | competitive inhibitor | carbapenem-resistant | with: DTNB | 13 µM
CC(=O)N[C@@H](CCCNC(=N)N)C(=O)N[C@@H](Cc1ccc(O)cc1)C(=O)N[C@@H](CCCNC(=N)NC(=O)NCCCCN)C(=O)N[C@@H](CC(C)C)C(=O)N[C@@H](CCCNC(=N)N)C(=O)N[C@H](Cc1ccc(O)cc1)C(N)=O | NPY4R (Homo sapiens, UniProt P50391) | ligand displacement, radioligand |  |  | 0.724 µM
CC[C@@H]1NC(=O)[C@H](CCCNC(=N)N)NC(=O)[C@H](NC(=O)C(C)C)CCNC(=O)c2cc(F)c(c(F)c2)N=Nc2c(F)cc(cc2F)C(=O)NCCNC(=O)[C@@H](Cc2ccccc2)NC1=O | WDR5 (Homo sapiens, UniProt P61964) | ligand displacement, FP |  |  | 0.008 µM
Cc1cc(O)cc(C)c1CC(N)C(=O)NC1CCNc2ccc(CN3CCc4ccccc4C3)cc21 (centres unmarked) | Oprd1 | ligand displacement, radioligand |  | cell membranes | 0.0031 µM
CNC(=O)C1CCN(c2ccccc2NC(=O)c2ccc(-c3cc(O)ccc3C)c(C)n2)CC1 | EPHA8 (Homo sapiens, UniProt P29322) | cell-free assay, TR-FRET |  |  | 0.0002 µM
CC(C)C(=O)N[C@H]1c2nc(CCc3ccccc3)cn2[C@H](CO)[C@@H](O)[C@@H]1O | human lysosomal hexosaminidase A/B |  |  |  | 0.55 ± 0.01 µM
COc1cc2c(cc1OC)C(=O)/C(=C\c1ccc(-n3ccnc3)cc1)C2 | ACHE | enzyme activity, inhibitor |  |  | 14 µM
CC[C@H](C)[C@@H]1NC(=O)[C@H](COP(=O)(O)O)NC(=O)[C@H](Cc2ccccc2)NC(=O)CSC[C@@H](C(N)=O)NC(=O)[C@H](CCC(=O)O)NC(=O)[C@H](CCC(=O)O)NC(=O)[C@H](Cc2ccc(OP(=O)(O)O)cc2)NC1=O | PPM1D | phosphatase activity, inhibitor, malachite green |  | with: ATM pS1981 peptide | 0.2 ± 0.02 µM

Repeated from above:
Structure (SMILES) | target | assay | system | conditions | Ki
Cc1cc(O)cc(C)c1CC(N)C(=O)NC1CCNc2c(C(=O)NCc3ccccc3)cc(Cc3ccccc3)cc21 (centres unmarked) | Oprd1 | ligand displacement, radioligand |  | cell membranes | 0.003 µM
COc1ccc2ccc3c(c2c1)C=[N+]1C2CCCCC2[N+]2=Cc4cccc(OC)c4[O][Au-]21[O]3.F[P-](F)(F)(F)(F)F (centres unmarked) | Klebsiella pneumoniae thioredoxin reductase | competitive inhibitor | carbapenem-resistant | with: DTNB | 13 µM
